{"data": "Values quoted from earlier work that unrelated publications cite", "note": "Lines come from different studies, so protocols differ.", "sequence of UniProt Q9BUB5 (whole entry, looked up)": "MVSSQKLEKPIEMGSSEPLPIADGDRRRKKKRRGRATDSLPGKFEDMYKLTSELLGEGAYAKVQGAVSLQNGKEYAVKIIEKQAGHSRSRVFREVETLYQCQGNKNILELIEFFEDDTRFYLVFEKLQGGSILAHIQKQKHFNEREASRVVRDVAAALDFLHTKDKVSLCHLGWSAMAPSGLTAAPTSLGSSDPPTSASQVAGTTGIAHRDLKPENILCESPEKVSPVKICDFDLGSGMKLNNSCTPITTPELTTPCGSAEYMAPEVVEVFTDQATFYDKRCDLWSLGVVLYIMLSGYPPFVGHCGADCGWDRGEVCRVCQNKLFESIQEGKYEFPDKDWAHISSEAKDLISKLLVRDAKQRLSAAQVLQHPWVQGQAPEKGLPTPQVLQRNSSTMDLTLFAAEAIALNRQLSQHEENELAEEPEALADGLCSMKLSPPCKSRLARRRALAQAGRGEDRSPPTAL"}
{"SMILES": "COC(=O)N[C@@H](C)CNc1nccc(-c2cn(C(C)C)nc2-c2cc(Cl)cc(NS(C)(=O)=O)c2F)n1", "tested on": "CYP3A (human)", "system": "human", "setting": "human ADME study", "endpoint": "contribution to metabolism", "value": "83%"}
{"SMILES": "O=C(O)CN1CCN(CC(=O)O)CCN(CC(=O)O)CCN(CC(=O)O)CC1", "tested on": "Cu(II)", "setting": "stability constant", "endpoint": "log K", "value": 22.2}
{"SMILES": "CO[C@H]1/C=C/O[C@@]2(C)Oc3c(C)c(O)c4c(O)c(c(/C=N/N5CCN(C)CC5)c(O)c4c3C2=O)NC(=O)/C(C)=C\\C=C\\[C@H](C)[C@H](O)[C@@H](C)[C@@H](O)[C@@H](C)[C@H](OC(C)=O)[C@@H]1C", "tested on": "P-glycoprotein (human)", "test": "competitive inhibitor", "endpoint": "Ki", "value": "169 µM"}
{"SMILES": "CNC(C)C1CCC(N)C(OC2C(N)CC(N)C(OC3OCC(C)(O)C(NC)C3O)C2O)O1 (stereo not shown)", "tested on": "Enterobacter cloacae", "system": "clinical isolate RKI-No_733/14", "endpoint": "MIC", "value": "> 8 µg/mL"}
{"SMILES": "O=C(O)CN(CCN(CC(=O)O)CC(=O)O)CC(=O)O", "tested on": "protonation constant", "setting": "0.15 M NaCl", "endpoint": "log KH2", "value": 5.99}
{"SMILES": "C=C[C@@H]1C[C@]1(NC(=O)[C@@H]1C[C@@H]2CN1C(=O)[C@H](C(C)(C)C)NC(=O)O[C@@H]1C[C@H]1CCCCCc1nc3ccc(OC)cc3nc1O2)C(=O)NS(=O)(=O)C1CC1", "tested on": "rat P-glycoprotein", "system": "LLC-PK1 cells transfected with P-glycoprotein", "setting": "1 µM", "scale": "relative to: B-A over A-B Papp", "endpoint": "efflux ratio", "value": "~30"}
{"SMILES": "CC(C)(O/N=C(\\C(=O)N[C@@H]1C(=O)N2C(C(=O)[O-])=C(C[n+]3ccccc3)CS[C@H]12)c1csc(N)n1)C(=O)O", "tested on": "Escherichia coli", "system": "clinical isolate RKI-No_593/16", "endpoint": "MIC", "value": "4 µg/mL"}
{"SMILES": "COC[C@H]1C[C@@H](c2ncc(-c3ccc4c(c3)COc3cc5c(ccc6nc([C@@H]7CC[C@H](C)N7C(=O)[C@@H](NC(=O)OC)C(C)C)[nH]c65)cc3-4)[nH]2)N(C(=O)[C@H](NC(=O)OC)c2ccccc2)C1", "tested on": "OATP1B3 (SLCO1B3) OATP1B3", "setting": "literature geometric mean", "endpoint": "IC50", "value": "0.28 µM"}
{"SMILES": "CCc1c2c(nc3ccc(OC(=O)N4CCC(N5CCCCC5)CC4)cc13)-c1cc3c(c(=O)n1C2)COC(=O)[C@]3(O)CC", "tested on": "cytochrome P450 isoenzymes", "setting": "concentration not given", "endpoint": "CYP inhibition", "value": "no inhibition"}
{"SMILES": "CN/C(=N/CCSCc1nc[nH]c1C)NC#N", "tested on": "OCT2", "test": "inhibitor", "endpoint": "Ki", "value": "0.25 µM"}
{"SMILES": "Nc1cc(C(F)(F)F)c(-c2nc(N3CCOCC3)nc(N3CCOCC3)n2)cn1", "tested on": "MAP kinase-interacting serine/threonine-protein kinase 1 (MKNK1, Homo sapiens, UniProt Q9BUB5)", "test": "enzyme activity", "setting": "10 µM", "scale": "relative to: untreated", "endpoint": "remaining activity", "value": "100%"}
{"SMILES": "CNCc1cn(S(=O)(=O)c2cccc(F)c2)c(-c2ccc(F)cc2F)c1OC", "tested on": "MATE1", "test": "transporter uptake", "endpoint": "IC50", "value": "0.76 µM"}
{"SMILES": "CC(O)c1cc(C(=O)N[C@@H](C)Cn2ccc(-c3ccc(C#N)c(Cl)c3)n2)[nH]n1 (stereo partly shown)", "tested on": "OATP1B3 (SLCO1B3) OATP1B1", "setting": "literature geometric mean", "endpoint": "IC50", "value": "7.99 µM"}
{"SMILES": "CO[C@H]1C[C@@H]2CC[C@@H](C)[C@@](O)(O2)C(=O)C(=O)N2CCCC[C@H]2C(=O)O[C@H]([C@H](C)C[C@@H]2CC[C@@H](O)[C@H](OC)C2)CC(=O)[C@H](C)/C=C(\\C)[C@@H](O)[C@@H](OC)C(=O)[C@H](C)C[C@H](C)/C=C/C=C/C=C/1C", "tested on": "recombinant human CYP3A4", "test": "substrate", "endpoint": "intrinsic clearance", "value": "9.33 µL/min/pmol"}
{"SMILES": "CCC(C)n1ncn(-c2ccc(N3CCN(c4ccc(OCC5COC(Cn6cncn6)(c6ccc(Cl)cc6Cl)O5)cc4)CC3)cc2)c1=O (stereo not shown)", "tested on": "OATP1B3 (SLCO1B3) OATP1B1", "setting": "literature geometric mean", "endpoint": "IC50", "value": "> 20 µM"}
{"SMILES": "O=C(O)C[C@H](O)C[C@H](O)/C=C/c1c(C2CC2)nc2ccccc2c1-c1ccc(F)cc1", "tested on": "OATP1B3", "endpoint": "share of hepatic uptake clearance", "value": "8%"}
{"note": "Some of these lines once more:"}
{"SMILES": "CO[C@H]1C[C@@H]2CC[C@@H](C)[C@@](O)(O2)C(=O)C(=O)N2CCCC[C@H]2C(=O)O[C@H]([C@H](C)C[C@@H]2CC[C@@H](O)[C@H](OC)C2)CC(=O)[C@H](C)/C=C(\\C)[C@@H](O)[C@@H](OC)C(=O)[C@H](C)C[C@H](C)/C=C/C=C/C=C/1C", "tested on": "recombinant human CYP3A4", "test": "substrate", "endpoint": "intrinsic clearance", "value": "9.33 µL/min/pmol"}
{"SMILES": "CCC(C)n1ncn(-c2ccc(N3CCN(c4ccc(OCC5COC(Cn6cncn6)(c6ccc(Cl)cc6Cl)O5)cc4)CC3)cc2)c1=O (stereo not shown)", "tested on": "OATP1B3 (SLCO1B3) OATP1B1", "setting": "literature geometric mean", "endpoint": "IC50", "value": "> 20 µM"}
